Published values collected from several papers.
A part holds a random share of what one study measured.

Series 1
Target: RING finger protein unkempt homolog, zinc fingers 1-6, GST-SBP tag (UNK, Homo sapiens, UniProt Q9C0B0, residues 30-357)
UniProt Q9C0B0, sequence (30-357, looked up): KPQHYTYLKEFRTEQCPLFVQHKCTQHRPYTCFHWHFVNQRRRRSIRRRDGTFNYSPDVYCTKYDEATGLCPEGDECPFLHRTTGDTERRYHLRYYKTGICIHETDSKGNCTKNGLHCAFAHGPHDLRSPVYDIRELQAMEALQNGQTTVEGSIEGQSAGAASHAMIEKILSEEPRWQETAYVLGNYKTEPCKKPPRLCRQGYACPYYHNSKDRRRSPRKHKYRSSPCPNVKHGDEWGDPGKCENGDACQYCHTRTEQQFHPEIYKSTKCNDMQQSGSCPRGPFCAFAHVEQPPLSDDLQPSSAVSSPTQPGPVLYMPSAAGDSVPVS
Technique: RNA Bind-n-Seq
Form: RNA
Matrix: in vitro
Concentration: not given
Setting: RNA with constant flanks, human-mouse chimeric sites, ends assumed
Baseline: input RNA pool
Reading: higher = stronger binding
Endpoint: bound/input enrichment
All sequences stand within: GGGAGUUCUACAGUCCGACGAUC … CAACAGAGGAUUGAGCAUCA
CUCAUGGCUGCAGAAACAGGAAGUGGAAAAACUGGUGCAUUUAGUAUUCCCGUUAUCCAGAUAGUGUAUGAAACUCUGAAAGACCAACAGGAAGGAAAAAAAGGAAAAACAACAAUUAAA: 2 ratio
CAGUCCCGCGACAGCGUGGGACAAUGUUGUGAACAAAAACUCAAAGCGGACCCUCUAUUGUAGUUCUUGAUUCUCGAAAUGUGCUAUUAUUGUUUGUCUUUUUUUUUUUUUUUUUAAAGA: 0.993 ratio
AGAAUCUUGGGACUGUUUUACUUAAUUGGUCAUUGAUAGCUUAACAAACAUGGAGAUAAGAUUAGAAAUCUUGACAUCAACAGGUAUUAAGCAGAAAAAACCCUGGCCCAGAGUAUCCUG: 0.136 ratio
CAGCCUCAGAGCCCAGACUUCCUGGAUAUUACCAACCCUAAAGCGGUAUUAGAAAAUGCACUUAGGAACUUCGCCUGUCUGACGACUGGAGAUGUGAUUGCUAUCAACUAUAAUGAAAAG: 0.76 ratio
UUCAAAGGCUGUGUUAUCUGUGUCAUUUCAUAAGUAACUCUGGGGGAGGGAAAUUCUGUUCUUUUGUUUUUAGUUUUCCCAAAUGAAGCCAAAGUGUGUGUUGAAGAACUGAGAAAAAAU: 0.528 ratio
GAUAAGAAAAGCUUGUUGGAGACCCGCUUGCAUGUCACUGGUAGAGAACUGAGGUCCCAAAUAGCUGAAACUUUCGGAUUUCAAGAAAAUUAUAUCAAGAUCGUAAUAAAUAAGAAACAG: 1.1 ratio
AAUUUCCUGUCAUACUUUUUAGACAUUGCCAUAGGUAUUACAGAGCACCUGGCCACAUUCUAGUUUUGUGUUAUUUCUCAGCUAUGGAUAUGAUCAAAUGAGAACACUGCUUAACUAAUG: 1.14 ratio
GUAGCUGGGACUACAGAAAUGCUGGUAAUUUCAGUCAGUGAGUCGUGACUUCUGAUGACCUAGCAAAUGUUGGCAUUGUUGACUGCUGAGAAGAUACUUCUGAGGACCCACGUCUAAGGU: 0.127 ratio
UUCAAAGAAAAGGGCAGCUGUGUCAUUUCAUAAGUAACUCUGGGGGAGGGAAAUUCUGUUCUUUUGUUUUUAGUUUUCCCAGAUAAAGCCAAAGUGUGUGUUGAAGAACUGAGAAAAAAU: 0.375 ratio
CCCUCCCCGGGCCACCCACCCCUCCCGCUCCCAGCGGGAGAUCCAGGUUUCUUCUUAUUUCAUAGCAAAUAAGAAAAAUGUUCUACGCACAUUUUGUCCUCAGUAAAAGAGGGCCUCUGG: 0.313 ratio
CUGUGCGGGUGACUGUCGGGAGCCGUCUGGAGUUCCCGCCGGAGCGCGGCCAGACUAAUUUUAGAAAAUGCCAAGUAGGAAGUUUGUUGAGGGUGAAGUGGUCAGAGGCCGAUGGCCUGG: 2.44 ratio

Series 2
Target: RNA binding protein fox-1 homolog 2, RRM domain, GST-SBP tag (RBFOX2, Homo sapiens, UniProt O43251-10, residues 100-194)
Technique: RNA Bind-n-Seq
Form: RNA
Matrix: in vitro
Concentration: 365 nM
Setting: natural RNA segment, single round, ends assumed
Baseline: no-protein control
Reading: higher = stronger binding
Endpoint: RBNS enrichment (R)
All sequences stand within: GGGAGUUCUACAGUCCGACGAUC … UGGAAUUCUCGGGUGCCAA
Target sequence (chain): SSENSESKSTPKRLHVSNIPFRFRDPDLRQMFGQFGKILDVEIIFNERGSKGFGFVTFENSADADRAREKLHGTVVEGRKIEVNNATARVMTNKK
ACCUUUUGUAUUUAAUUUUAAAGUCAGUGUACUGCAAGGAAGCUGGAUGCAAGAUAGAUACUAUAUUAAACUGUACUGUUAUUUAAGAUGUAAUAAAGCAGUUUGACAUG: 0.269
AGCCUUGGAGCAAAGUUGACCACCACCUUGUGUGGAUCAAGAAGAGAAGAAACUACUUUGGAGUUUUUGAAAAAGCAAGCCAGAAAAUCCACUGAGCCUUCAGCAGAAAU: 0.288
CACUUGCCUCGUGAGACUUCAUAGAACAGUGGUUUACUGUCCCCCCCUUCUCACCUCCUCAUUCUCUCUGGCUCUUUCUGUCUUCCUCUUCUCACCCUCCUCCCUCCCCU: 1.1
UUGGGGGCCUACUUCUUCAUGGAAGAAUUACUUUUAUUCUCAAACUACAGAAUAAUGUGCUAAGUAGUGCUAAAUAGUUCUUGACGAAGAAAACAGUCACUGCAUUUAUC: 0.629
AGCUGAGCCAGGCUAUGAGGAAACCCUGGAUAUCAGCAUAAACCUAUGUCUGGGACUACGAUCCCUUUUCCCUGGGUAAUAAACUCAGCCACCCAUCCUAAGGAGGCAAG: 0.313
UCAGACUCAUAUGGCAUGUUAAUUAAUGACUUACGAUGGUGUCCUACUCUGGGCAGCUGUAUAGGAUCAUCAUGUGGUUAAAAGAAGAUACUUCCCUCCAAAAAAAAAUC: 1.15
AGCAUCGCUGAGCGUUAGACAAAGUGUUACACAGAAUGAUUAAAACUUUCAGACUUCUACCUAUGCUCUUUAGUCCUGUAAAUUGGGUUGUAUUGAUGUCAACUCUGGUG: 0.742
UGAACCUCUGAGGGCCAAAAUAGGACAUUUGGGAACAACUCCUUAACCCAUGAACUAGCUGUAACAUAGUUUGUGGAUCCAUGCACUGAUGCUGUGAAGCCUGCCCCUGU: 0.861
UUGUUUUAUCAUCAGCCAAGUUAAACCCCUGCUUCCUGCCUUUUACACCUAUUGCGUGAACAGAAUAUGCAUUAUUAAAGCAAAAAUAAAUAAAAAAUAAAAUGCAAGUG: 0.764
UUUUCCAUGGGGCACUCACUCAGAAUAUUACAAGCCAUUUUAUUGCCAAAACCAGCAAGUACACCGAAUCCUGAGACAAGGCAGUUCUUGUGACAGUGCCUUGGCCUCCU: 0.547
GAUGUGUCCUUGUAUGCUGGUGGAUUCUUCUAGAAAGUAUUUUCUAUCUUGGUUGUAUUUGCUGCCAUCUGUCUUAUUCCCACAUUUCCCUACAGCCCAUAGUAGUGUCA: 0.825
CCCAAAUAACUCAUGAGUUCCAAGUUGAAACAUGGUUGUGCAAGUUGGACAUUACAAUGUAAAACACAUUUUCUUCAAACACGUUUUCCCUUUUGUUUCAAAAAAUGUAA: 0.462

Series 3
Target: Interferon regulatory factor 7, full length, phosphomimetic (IRF7, Homo sapiens, UniProt Q92985, residues 1-503, S471D/S472D/S475D/S476D/S477D/S483D/S484D/S487D)
Technique: protein-binding microarray
Form: double-stranded DNA, one strand shown
Matrix: in vitro
Concentration: 2200 nM top
Setting: 60-bp whole probe
Together with: salmon DNA 0.4 mg/ml
Baseline: random background probes
Reading: higher = stronger binding
Endpoint: fitted relative affinity
All sequences stand within: GCCTAGCAC … GTCTTGATTCGCTTGACGCTGCTG
Target sequence (chain): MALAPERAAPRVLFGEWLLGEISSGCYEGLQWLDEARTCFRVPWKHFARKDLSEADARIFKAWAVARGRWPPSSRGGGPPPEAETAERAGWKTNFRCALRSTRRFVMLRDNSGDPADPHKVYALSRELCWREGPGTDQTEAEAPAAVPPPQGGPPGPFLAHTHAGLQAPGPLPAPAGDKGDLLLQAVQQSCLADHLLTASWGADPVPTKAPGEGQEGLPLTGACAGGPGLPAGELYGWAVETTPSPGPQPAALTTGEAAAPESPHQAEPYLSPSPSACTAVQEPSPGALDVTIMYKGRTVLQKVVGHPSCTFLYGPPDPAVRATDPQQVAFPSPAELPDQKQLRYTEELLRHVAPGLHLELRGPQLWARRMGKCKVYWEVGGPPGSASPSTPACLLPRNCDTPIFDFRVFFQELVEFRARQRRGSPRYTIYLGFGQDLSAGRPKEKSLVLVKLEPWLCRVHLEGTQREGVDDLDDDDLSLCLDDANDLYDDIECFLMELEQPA
CTCCCCTTGCTTTCCAATTCGTGCTAG: 2.51 z-score
TTGGATTCCAGTTTCGATTAGTGCTAG: 6.99 z-score
GCCTACTCGCTCGTCCGGAGGTGCTAG: 0.257 z-score
TCAAGTTTATTTATTTTACTGTGCTAG: 0.174 z-score
GACGGACTGGGACTGCGGACGTGCTAG: -0.946 z-score
GACGGTTTCTGGACTGGGGACGTGCTA: 1.11 z-score
TTAGGACTGGGGTGTCGGTTAGTGCTA: -0.534 z-score
GACGCTTTCAGTTCCGAGACGTGCTAG: 4.02 z-score
TACAGCAGGGAGGGAGGCACGTGCTAG: -0.638 z-score
TCAGGTTTCCAAATTGTACTGTGCTAG: 1.6 z-score
GACGGTTTCGTTCTCGGGACGTGCTAG: 6.45 z-score
GACGGTATTGACTTTCGGGACGTGCTA: 2.97 z-score
GACGAACTGAGACTGCAGACGTGCTAG: -0.183 z-score
TTAAATATCGGGACTGGATTAGTGCTA: -0.536 z-score
TTAGTTTTCGGACTGGGTTAGTGCTAG: 3.3 z-score
TTAGACTTCGGGTTTCGATTAGTGCTA: 2.55 z-score
GAGGGTATCGACTTTCGGGACGTGCTA: 2.52 z-score
TTAGATATCGGTATCGATTAGTGCTAG: 0.305 z-score
GACGGTTTCGACTTTCGGCACGTGCTA: 7.53 z-score
TTCTCTTTCACTGCTGCCCTGTGCTAG: 2.76 z-score
GACGACCTGGGGTATCGAGACGTGCTA: -0.167 z-score
TCAGCTTTCTTTTTGCAACTGTGCTAG: 4.61 z-score
TTACGTTTCCTTTCCCTTTAGTGCTAG: 6.91 z-score
GAGGATATCAGTCTCGAGACGTGCTAG: 0.143 z-score
GACGGTTTCGGTTCCGGGAAGTGCTAG: 11.7 z-score

Series 4
Target: Histone acetyltransferase KAT6A, winged helix 1, GST fusion (KAT6A, Homo sapiens, UniProt Q92794, residues 1-85)
Technique: protein binding microarray
Form: double-stranded DNA, one strand shown
Matrix: in vitro
Concentration: not given
Setting: 8-mer, flanks averaged, mean of 2 arrays, mostly near background
Baseline: not given
Reading: higher = stronger binding
Endpoint: E-score
Construct (chain): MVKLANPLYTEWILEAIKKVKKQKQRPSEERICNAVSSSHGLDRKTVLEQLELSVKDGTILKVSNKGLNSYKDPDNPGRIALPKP
GGTTGCTA: -0.00562
ATGATTCG: -0.00186
AGGATCAG: -0.163
ATACCACA: -0.255
CCGGAAGG: 0.106
ATTACACG: 0.127
CAAACTCG: -0.00915
CCTTTACA: -0.207
ATTTCGAC: 0.0338
CACTATCA: -0.0675
AGGGGGAG: -0.0956
CCATTAGC: -0.0489
CTTCATTC: -0.186
ACCGCGTC: 0.385
ATACCATC: -0.0731
AGATCGAC: -0.0985
ATCTTCCA: -0.106
TATGCATA: -0.0705
ACTGCCGC: 0.373
AGCCATGC: -0.0705
CCCGTATA: 0.271
ACAAAAGC: -0.109
CGGCACCG: 0.391
AGATCTTC: -0.122
GAGGGATC: -0.0668
